Experimental data collected from several papers.
Protocols differ between the studies behind these lines. ± gives the spread as reported.
Organism: Plasmodium falciparum

O=S(=O)(c1ccc(-c2ccc3nccc(Nc4ccccc4)c3c2)cc1)N1CCOCC1  EC50 (parasite growth, SYBR Green; TM91C235): 260 nM
COCC(=O)N1CCC[C@H](C(=O)NCc2nc(-c3ccc(C(F)(F)F)cc3)cs2)C1  EC50 (SYBR Green growth; asexual blood-stage parasites, 3D7; 72 h): 27 ± 6.4 nM
CCOCC(=O)N1CCC[C@H](C(=O)NCc2nc(-c3ccc(C#N)cc3)cs2)C1  EC50 (3D7; 72 h): 7 ± 3.8 nM
CCOC(=O)c1cn(CC)c2cc(N3CCC(Cc4ccccc4)CC3)c(F)cc2c1=O  EC50 (parasite growth, [3H]hypoxanthine incorporation; RF12; 72 h): 6 nM
COc1ccc(NC(=O)N2CCCCN3[C@H](CO)[C@H](c4ccc(C#Cc5ccccc5)cc4)[C@@H]3C2)cc1  EC50 (blood-stage growth inhibition; Dd2): 11 nM
CCN1CCN(Cc2ccc(Nc3nc4ccc(Oc5ccnc(N)c5)cc4n3C)cc2C(F)(F)F)CC1  EC50 (parasite growth, SYBR Green I; Dd2; 72 h): 300 ± 20 nM
Cn1nc2c(=O)n(C3CC3)ncc2c1[C@@](O)(c1cnc(C(F)(F)F)c(Cl)c1)C(F)(F)F  EC50 (parasite growth; 3D7): 631 nM
O=S(=O)(c1ccc(-c2ccc3nccc(Nc4cccnc4)c3c2)cc1)N1CCOCC1  EC50 (parasite growth, SYBR Green; D6): 490 nM
COCC(=O)N1CCC[C@H](C(=O)NCc2nc(-c3cccnc3)cs2)C1  EC50 (SYBR Green growth; asexual blood-stage parasites, 3D7; 72 h): 92 ± 12 nM
CCN1CCN(Cc2ccc(Nc3nc4cc(Oc5ccnc(NC(C)=O)c5)ccc4n3C)cc2C(F)(F)F)CC1  EC50 (parasite growth, SYBR Green I; Dd2; 72 h): 700 ± 100 nM
C[C@H]1[C@@H](O)O[C@@H]2O[C@@]3(C)CC[C@H]4[C@H](C)CC[C@@H]1[C@@]24OO3  EC50 (NF54; 72 h, stage III gametocytes): 11.2 nM
Cn1nc2c(=O)n(C3CC3)cnc2c1[C@@](O)(c1cnc(C(F)(F)F)c(Cl)c1)C(F)(F)F  EC50 (parasite growth; 3D7): 501 nM
O=[N+]([O-])c1ccc(Nc2ccnc3ccc(-c4ccc(S(=O)(=O)N5CCOCC5)cc4)cc23)cn1  EC50 (parasite growth, SYBR Green; TM91C235): 560 nM
CCOCC(=O)N1CCC[C@H](C(=O)NCc2nc(-c3ccc(C)nc3)cs2)C1  EC50 (SYBR Green growth; asexual blood-stage parasites, 3D7; 72 h): 4.3 ± 0.68 nM
Cc1cc(C(C)NC(=O)c2[nH]cc(Cc3cccc4ccncc34)c2C)no1 (stereo not shown)  EC50 (parasite growth; 3D7): 2 to 4 nM
Cc1ccc(-c2csc(CNC(=O)[C@H]3CCCN(C(=O)COCCF)[C@@H]3C)n2)cn1 (racemic)  EC50 (SYBR Green growth; asexual blood-stage parasites, 3D7; 72 h): 2100 ± 900 nM
CCN(c1ccc(C)cc1)c1ccc(NC(=O)CN(C)c2ccccc2N2CCCC2=O)cn1  EC50 (schizont egress, nanoluciferase release; 3D7 NanoLuc; 4 h): > 10000 nM
CCOCC(=O)N1CCC[C@H](C(=O)NCc2nc(-c3ccc(C#N)cc3)cs2)C1  EC50 (SYBR Green growth; asexual blood-stage parasites, 3D7; 72 h): 8.1 ± 3 nM
CCn1cc(-c2nc(C)no2)c(=O)c2cc(F)c(N3CCC(C)CC3)cc21  EC50 (parasite growth, [3H]hypoxanthine incorporation; K1; 72 h): 7 nM
CCn1cc(C2CC2)c2c(Cc3cnc(C(F)(F)F)c(Cl)c3)n(C)nc2c1=O  EC50 (parasite growth; 3D7): 31.6 nM
CCn1cc(-c2nc(C)no2)c(=O)c2cc(F)c(N3CCC(Cc4ccccc4)CC3)cc21  EC50 (parasite growth, [3H]hypoxanthine incorporation; 7G8; 72 h): 2 nM
Cc1c(C2(c3ccc(C(F)(F)F)nc3)CC2)c[nH]c1C(=O)NC(C)c1c[nH]cn1 (stereo not shown)  EC50 (parasite growth; 3D7): 520 nM
CC(=O)Nc1cc(Oc2ccc3nc(Nc4ccc(F)cc4F)n(C)c3c2)ccn1  EC50 (parasite growth, SYBR Green I; Dd2; 72 h): > 5000 nM
CNC(=O)[C@H](C)NC(=O)c1[nH]cc(Cc2ccc(C(F)(F)F)nc2)c1C  EC50 (parasite growth; 3D7): 8900 nM
O=S(=O)(c1ccc(-c2ccc3nccc(Nc4nnc(C5CC5)s4)c3c2)cc1)N1CCOCC1  EC50 (parasite growth, SYBR Green; W2): 1400 nM
COCC(=O)N1CCC[C@H](C(=O)NCc2nc(-c3ccc(C)cc3)cs2)C1  EC50 (SYBR Green; 3D7; 72 h): 24 ± 2.1 nM
COCC(=O)N1CCC[C@H](C(=O)NCc2nc(C3CCOCC3)cs2)C1  EC50 (SYBR Green growth; asexual blood-stage parasites, 3D7; 72 h): > 5000 nM
COc1ccc(Nc2ccnc3ccc(-c4ccc(S(=O)(=O)N5CCOCC5)cc4)cc23)cc1Cl  EC50 (parasite growth, SYBR Green; W2): 540 nM
CC[C@@](N)(c1ccc(C(F)(F)F)c(Cl)c1)c1c2ncn(C3CC3)c(=O)c2nn1C  EC50 (parasite growth; 3D7): 0.91 nM
CNS(=O)(=O)c1ccccc1Nc1nc(Nc2cc(OC)c(OC)cc2C)ncc1Br  EC50 (parasite growth, LDH colorimetric; 3D7 Hyp1-Nluc; 72 h): 150 nM
O=S(=O)(c1ccc(-c2ccc3nccc(Nc4ncc(Cl)cn4)c3c2)cc1)N1CCOCC1  EC50 (parasite growth, SYBR Green; W2): 5500 nM
COc1cc(OC)c(CCNC(=O)c2cn3cc(-c4cc(OCC(=O)O)ccc4OC)nc3s2)c(OC)c1  EC50 (parasite growth, LDH colorimetric; 3D7 Hyp1-Nluc; 72 h): 4530 nM
CCCC(=O)N1CCC[C@H](C(=O)NCc2nc(-c3ccccc3)cs2)C1  EC50 (SYBR Green growth; asexual blood-stage parasites, 3D7; 72 h): 4800 ± 1200 nM
Cc1c(-c2n[nH]c3nc(C(F)(F)F)ccc23)c[nH]c1C(=O)NCC(F)(F)F  EC50 (parasite growth; 3D7): 350 nM
CC[C@@](O)(c1cnc(C(F)(F)F)c(Cl)c1)c1c2ncn(C3CC3)c(=O)c2nn1C  EC50 (parasite growth; 3D7): 0.94 nM
CCOCC(=O)N1CCC[C@H](C(=O)NCc2nc(-c3ccc(NCCCN)nc3)cs2)C1  EC50 (SYBR Green growth; asexual blood-stage parasites, 3D7; 72 h): 310 ± 110 nM
COc1ccc(CNc2nc(-c3ccc(C(=O)O)nc3)nc3sc4c(c23)CCCC4)cc1Cl  EC50 (parasite growth, LDH colorimetric; 3D7 Hyp1-Nluc; 72 h): 1340 nM
CCn1cc(C)c2c([C@@H](N)c3ccc(C(F)(F)F)nc3)n(C)nc2c1=O  EC50 (parasite growth; 3D7): 3980 nM
COc1cc(C(=O)N(C)C)ccc1-c1cc2nccc(-c3ccc4ccncc4c3)c2o1  EC50 (parasite growth, LDH colorimetric; 3D7 Hyp1-Nluc; 72 h): 906 nM
Cc1cnc(Nc2ccnc3ccc(-c4ccc(S(=O)(=O)N5CCOCC5)cc4)cc23)s1  EC50 (parasite growth, SYBR Green; D6): 100 nM
Cn1nc2c(=O)n(C3CC3)ncc2c1[C@](O)(c1cnc(C(F)(F)F)c(Cl)c1)C1CC1  EC50 (parasite growth; 3D7): 15.8 nM
CCOCC(=O)N1CCC[C@H](C(=O)NCc2nc(-c3ccc(C)nc3)cs2)C1  EC50 (SYBR Green; 3D7; 72 h): 4.3 ± 0.83 nM
CCN1CCN(Cc2ccc(Nc3nc4ccc(Oc5ccnc(NC(=O)CCN(C)C)c5)cc4n3C)cc2C(F)(F)F)CC1  EC50 (parasite growth, SYBR Green I; Dd2; 72 h): 200 ± 100 nM
COc1ccc(Nc2ccnc3ccc(-c4ccc(S(=O)(=O)N5CCOCC5)cc4)cc23)cc1C  EC50 (parasite growth, SYBR Green; TM91C235): 250 nM
CCn1cc(C)c2c([C@H](O)c3ccc(C(F)(F)F)nc3)n(C)nc2c1=O  EC50 (parasite growth; 3D7): 20 nM
CCCCN(CCCC)CC(O)c1cc(Cl)cc2c1-c1ccc(Cl)cc1/C2=C/c1ccc(Cl)cc1 (stereo not shown)  EC50 (gametocyte viability, luciferase; stage II-III gametocytes; 48 h): 9 nM

Some of these lines once more:
CCn1cc(C)c2c([C@@H](N)c3ccc(C(F)(F)F)nc3)n(C)nc2c1=O  EC50 (parasite growth; 3D7): 3980 nM
COc1cc(C(=O)N(C)C)ccc1-c1cc2nccc(-c3ccc4ccncc4c3)c2o1  EC50 (parasite growth, LDH colorimetric; 3D7 Hyp1-Nluc; 72 h): 906 nM
Cc1cnc(Nc2ccnc3ccc(-c4ccc(S(=O)(=O)N5CCOCC5)cc4)cc23)s1  EC50 (parasite growth, SYBR Green; D6): 100 nM
Cn1nc2c(=O)n(C3CC3)ncc2c1[C@](O)(c1cnc(C(F)(F)F)c(Cl)c1)C1CC1  EC50 (parasite growth; 3D7): 15.8 nM
